Results from different studies.
Numbered parts are unrelated; each lists some results of a single study. Positions count from the first letter of the parent shown.

Series 1
Target: ABI1, truncated, D143A, DHFR fusion (Arabidopsis thaliana)
Technique: DHFR PCA, deep sequencing
Medium: yeast
Setting: methotrexate growth selection, single substitutions
With: (+)-ABA 4.8 µM
Reference: wild-type fitted maximum
Reading: higher = stronger binding
Starting sequence: PYL1, truncated, DHFR fusion (Arabidopsis thaliana); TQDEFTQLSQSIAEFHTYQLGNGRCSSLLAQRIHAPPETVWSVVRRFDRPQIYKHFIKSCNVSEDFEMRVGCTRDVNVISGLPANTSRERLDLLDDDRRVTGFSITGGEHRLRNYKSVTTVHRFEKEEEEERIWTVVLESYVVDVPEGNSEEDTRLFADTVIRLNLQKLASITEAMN; partner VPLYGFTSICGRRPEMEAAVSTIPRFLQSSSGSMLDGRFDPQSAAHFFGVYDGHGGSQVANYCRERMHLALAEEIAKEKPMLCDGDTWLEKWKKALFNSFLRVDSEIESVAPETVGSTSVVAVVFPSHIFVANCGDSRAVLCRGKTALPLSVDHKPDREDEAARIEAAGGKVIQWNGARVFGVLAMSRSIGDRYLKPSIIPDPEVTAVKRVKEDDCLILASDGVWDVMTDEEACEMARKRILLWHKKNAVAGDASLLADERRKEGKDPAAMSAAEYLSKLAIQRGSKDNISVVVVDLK
Variant	relative binding score [%]
T6Y	57.8
E67H	62.2
P37D	-4.72
E152W	49.8
T160I	17.2
F15W	74.8
A84W	79.2
T86M	57.2
E174H	22.5
T173A	76.8
G71H	6.07
F5Q	64.6
T120N	7.19
I33C	39.3
G23Q	50.1
N149A	30.6
C25T	71.7

Series 2
Target: RING finger protein unkempt homolog, zinc fingers 1-6, SBP tag (UNK, Homo sapiens, UniProt Q9C0B0, residues 30-357)
Chain of UniProt Q9C0B0 (30-357, looked up): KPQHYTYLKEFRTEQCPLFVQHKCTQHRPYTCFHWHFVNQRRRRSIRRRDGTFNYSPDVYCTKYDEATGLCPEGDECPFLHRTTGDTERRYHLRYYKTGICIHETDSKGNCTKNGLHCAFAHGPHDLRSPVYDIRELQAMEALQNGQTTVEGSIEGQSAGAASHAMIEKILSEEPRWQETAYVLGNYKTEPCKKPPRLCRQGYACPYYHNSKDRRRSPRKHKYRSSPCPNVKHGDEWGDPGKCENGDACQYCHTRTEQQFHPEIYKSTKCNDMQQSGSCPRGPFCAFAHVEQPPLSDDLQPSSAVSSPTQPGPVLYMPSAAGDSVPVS
Technique: RNA Bind-n-Seq
Molecule type: RNA
Medium: in vitro
Concentration: 100 nM
Setting: RNA with constant flanks, ends assumed
Reference: input RNA pool
Reading: higher = stronger binding
Sequence	bound/input enrichment
GGGAGUUCUACAGUCCGACGAUCUGAACUUUCCGCUUUCAAGUUGUGGCUGUUUUUUGUUUUUGUUUUUGUUUUUGUUUUCUUCCGAAUUUUUCCCUGUUUCCCACCUUCUCUUCCCCUGUUGCCAAGGUCUAACUCAUGGAUCAACAGAGGAUUGAGCAUCA	1.25 ratio
GGGAGUUCUACAGUCCGACGAUCCACUCUAAUUAAUUGUAAUCUGAAUAAAGUGUAACAAUUGUGCCGCCUUUUUGUAUAAAACCGACAAACCGAAAAUGGUCCAAUCCGUUUCCUUUUUAAUAUGCUUAAAAUAAGCAGGUGCAACAGAGGAUUGAGCAUCA	0.56 ratio
GGGAGUUCUACAGUCCGACGAUCGGUUAAUGUGUUAUUUAUUGAGUAUUGUUUGUGCUAAGCAUUGUGUCCGAUUUAAAAAAUCCGUGGAUUGACUCCACUUUGUUGUGUUGUUUUCAUUGUUGAAAAUAAAUAUAACUUUGUCAACAGAGGAUUGAGCAUCA	0.281 ratio

Series 3
Target: CCNA2, cyclin fold, Cln2 fusion (human)
Technique: yeast growth competition, sequencing
Medium: yeast
Setting: strong parent motif
Reference: not given
Reading: higher = stronger binding
Starting sequence: REV3L docking peptide (human); PPVIIKYIIINRF
Variant	normalised enrichment score
I4A	0.937
I8A	0.669
Y7A	1.09
I9A	0.757
F13A	0.712
R12A	1.04
K6A	-0.0249

Series 4
Target: Sal-like protein 4, full length isoform B (SALL4, Homo sapiens, UniProt Q9UJQ4-2, residues 1-616)
Technique: universal PBM
Molecule type: double-stranded DNA, one strand shown
Medium: in vitro
Concentration: not given
Setting: 8-mer, flanks averaged, mean of replicates
Reading: higher = stronger binding
Sequence	E-score
GAGGCCAA	-0.148
CGAGTACG	-0.151
GTATCTTA	0.278
CAGGAGTA	-0.0268
CAAAGACA	0.0339
ATGCCTAG	0.088
TCAACTCA	0.0149
TCCCTAAA	0.166
AATACAAT	0.315
AAAAATCA	0.247
GGGAACCA	-0.215
ACCGTATC	-0.0833
ACACTAAG	0.111
CCTGTTCC	-0.107
CCAAGCGG	-0.425
CTTCATCC	0.0028
AACAAAAA	0.302
ATCAACTG	-0.00798
CTGACCCA	-0.12
CATGTATC	0.19
AAGTGGCA	-0.0391
CTACTTAA	0.0825
TAGCTGGA	-0.0839
ACCTGATC	0.0291
AAAGTTTG	0.183

Series 5
Target: PABPC1L2, full length, GST fusion (mouse, UniProt A0ABA7IW68)
Technique: RNAcompete
Molecule type: RNA
Medium: in vitro
Concentration: 20 nM
Setting: 7-mer, probes averaged, single round
Reference: mean of 7-mers
Reading: higher = stronger binding
Construct (chain): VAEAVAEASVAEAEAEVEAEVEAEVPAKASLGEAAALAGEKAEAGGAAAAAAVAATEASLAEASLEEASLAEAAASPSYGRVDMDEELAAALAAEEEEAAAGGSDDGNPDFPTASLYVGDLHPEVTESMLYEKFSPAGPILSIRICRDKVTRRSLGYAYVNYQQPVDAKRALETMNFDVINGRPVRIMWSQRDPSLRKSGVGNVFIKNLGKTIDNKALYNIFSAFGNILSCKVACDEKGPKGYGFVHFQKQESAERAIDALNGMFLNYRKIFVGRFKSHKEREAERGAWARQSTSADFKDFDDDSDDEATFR
Sequence	7-mer Z-score
GUGGACA	0.396
AUGGGUC	0.108
ACGAAUC	-0.0663
CAGGAGA	0.224
CUGCGCG	-0.242
CUACCCA	-0.248
GAACACU	-0.0464
AAAAAAA	17.6
AUUCAGA	0.0768
AUCUUUA	0.129
GAUGCAU	-0.237
AGAGUGU	-0.199
GGUUCAG	-0.0953
UUUGUUC	-0.49
CAAAUGC	0.117
UGCUGUG	-0.155
CGACUUU	-0.133

Series 6
Target: RNA binding protein fox-1 homolog 2, RRM domain, GST-SBP tag (RBFOX2, Homo sapiens, UniProt O43251-10, residues 100-194)
Technique: RNA Bind-n-Seq
Molecule type: RNA
Medium: in vitro
Concentration: 365 nM
Setting: natural RNA segment, single round, ends assumed
Reference: no-protein control
Reading: higher = stronger binding
Constant ends, left off below: GGGAGUUCUACAGUCCGACGAUC … UGGAAUUCUCGGGUGCCAA
Residues (chain): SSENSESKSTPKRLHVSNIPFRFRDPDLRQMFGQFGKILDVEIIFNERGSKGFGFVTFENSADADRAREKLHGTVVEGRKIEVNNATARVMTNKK
Sequence	RBNS enrichment (R)
AUCCUUAUAGUCAAUUCUGUGCCUAGGAUUUUGCCAGGGAACAGUUCACUGACUAGGAAAAGCACUACAUUUUAAAUUCAGCAUUAGUGCAUUGGGAAGGAUCUUUACUG	0.329
CUGUGUUCUUGUUUUGUUCAUGGUGUUUCUAAGCGUUUUGCUGAAGCUGCUCUCAGGCACCCCCUUCUUCAUUGCUCUCUCCAGAAAGGGUUGCUAGCCUUAACUUCAGC	0.649
CAUUCAUUAAUGUUAAGGCUAAUACAUUUAAGAUCUUGUUUAAACAAUGUUUCUUCUGCAACUGGCUACUCCUCUUAUAUUAAUGCAUACACUUUUGUAAAGAAGUAUAU	0.364
CACGUGGUAGGCUCCACACUGGGCCUCACAUGGAAUGGUUUCCUGCUCAGAUCCAGUCCACGGGUCCAAGGAUGCUGGAUCCAAGGACUUCUCUUCCACAGUGGCCGGCC	0.348
AGGGAAUGUGCAGGAACAGAGGCGUCUUCCUGGGUUUGGCUCCCCGUUCCUCACUUUUCCCUUUUCAUUCCCACCCCCUAGACUUUGAUUUUACGGAUAUCUUGCUUCUG	0.355
ACCAUAUAAUAAAAAUACUUAACUAAAUUGACAGUUAUAAAAAUAAAUCAGUGAAAUGUACCUUAUACUUUAAUAAAAAAUGUUUUCAGAAAUAGAUAAGUGAAAGCUGA	0.464
AGUGAGGCUGGAGAAAUGGCUUAGAGGUUAAGAGUGUGGACUGUUCUUGCGUAGUUAUGACCAUUGAAUUUAGUUCCCAACAUUCUUUUUGGGUGGCUCGAAACUUCCUG	0.493
CUAAGUUGUCUAGUAAAUAAGUCUCCCUGAAUCUUAAAUAAUUUUGGAGAAUUAGAAUUCUCCAUCCUAUUAAACAGAAAGUAAAGCCAAAUAGCCUGGAGUUGUUUGUC	0.54
AGUUUUAAGAUCAACCAAUAGAUAUAUAUCCUACAAUUGAUAUAUUGCUUUAUUCACACUUUUAUUGUGGCUGAAUUUUUGUGCCUAUCUAUAAAACACACUUUCAAAUU	0.482
UUUAAAAGAAGUUUUAAGAUAGAUAUUAAUAUGAAGUGUGUAAUAUUUCUUUUGAGGGUCAAAUAUUUGGCACAUUAUAUAAAAAUAUAAAUUAAAAAUUAUAUGCAUGU	13.9
UUAUCUCAGCUUCUCCAUCACCCCCACUUGGAGCAACAGUGUCACAUCUCCACCCCACUUACCAAUAAAAGCUACCCUUUCCACCCAGUGGAAUGGGAUGGCAGAAAACC	0.353
CAUUCGAGGCGGCCUCAGGAGUGGAUGCGAUCUGUCUCUCCUGGCUCCACUCUUGCCGCCUUCCAGCUCUGAGUCUUGGGAAUGUUGUUACCCUUGGAAGAUAAAGCUGG	0.574

Series 7
Target: Histone acetyltransferase KAT6A, both winged helices, GST fusion (KAT6A, Homo sapiens, UniProt Q92794, residues 1-181)
Technique: protein binding microarray
Molecule type: double-stranded DNA, one strand shown
Medium: in vitro
Concentration: not given
Setting: 8-mer, flanks averaged, mean of 2 arrays, mostly near background
Reference: not given
Reading: higher = stronger binding
Residues (chain): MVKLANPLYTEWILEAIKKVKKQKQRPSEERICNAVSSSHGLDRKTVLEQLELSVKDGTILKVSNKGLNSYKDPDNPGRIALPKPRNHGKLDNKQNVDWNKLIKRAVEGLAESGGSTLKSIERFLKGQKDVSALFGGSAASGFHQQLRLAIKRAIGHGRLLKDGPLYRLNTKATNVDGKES
Sequence	E-score
CTAATCAA	-0.115
AACCTTCC	-0.0138
ATAGTTAA	0.0753
CGCCGATC	0.271
CCAGGGGC	-0.0616
CGCAAACC	0.171
ACCCGATC	0.103
CCTGTCCA	-0.102
ACCGACCA	-0.124
CACAGAGG	-0.199
AGACTGCC	0.103
GTAAGCAA	-0.165
TATGTCGA	0.018
TACGTGCA	-0.0215
CCTACCCA	-0.223
ATCCTAAC	0.0253
CTAATCGC	0.126
CGACCGAA	-0.00491
TGGATAAA	-0.00602
CTTATATC	-0.077
ATACAAAG	0.0113
AACTCCCC	-0.06
ATCCTTAA	-0.0936
AGCAAAAC	-0.0679
ATGTAGCG	0.154

For quick reference, copied from above (series 7):
Sequence	E-score
AACTCCCC	-0.06
TACGTGCA	-0.0215
AGCAAAAC	-0.0679
ATCCTTAA	-0.0936
CTTATATC	-0.077
CGCCGATC	0.271
AACCTTCC	-0.0138
TGGATAAA	-0.00602
CCTACCCA	-0.223
TATGTCGA	0.018
ATCCTAAC	0.0253
CCTGTCCA	-0.102
ACCGACCA	-0.124
ATACAAAG	0.0113
CCAGGGGC	-0.0616
GTAAGCAA	-0.165
CACAGAGG	-0.199
